# Measured values from different studies.
# Each line is one published result; not all experiments were run side by side.
# ABL1 F317I non-phosphorylated: Tyrosine-protein kinase ABL1, non-phosphorylated (ABL1, Homo sapiens, UniProt P00519, F317I)
# Sequence of UniProt P00519 (whole entry, unmodified, looked up): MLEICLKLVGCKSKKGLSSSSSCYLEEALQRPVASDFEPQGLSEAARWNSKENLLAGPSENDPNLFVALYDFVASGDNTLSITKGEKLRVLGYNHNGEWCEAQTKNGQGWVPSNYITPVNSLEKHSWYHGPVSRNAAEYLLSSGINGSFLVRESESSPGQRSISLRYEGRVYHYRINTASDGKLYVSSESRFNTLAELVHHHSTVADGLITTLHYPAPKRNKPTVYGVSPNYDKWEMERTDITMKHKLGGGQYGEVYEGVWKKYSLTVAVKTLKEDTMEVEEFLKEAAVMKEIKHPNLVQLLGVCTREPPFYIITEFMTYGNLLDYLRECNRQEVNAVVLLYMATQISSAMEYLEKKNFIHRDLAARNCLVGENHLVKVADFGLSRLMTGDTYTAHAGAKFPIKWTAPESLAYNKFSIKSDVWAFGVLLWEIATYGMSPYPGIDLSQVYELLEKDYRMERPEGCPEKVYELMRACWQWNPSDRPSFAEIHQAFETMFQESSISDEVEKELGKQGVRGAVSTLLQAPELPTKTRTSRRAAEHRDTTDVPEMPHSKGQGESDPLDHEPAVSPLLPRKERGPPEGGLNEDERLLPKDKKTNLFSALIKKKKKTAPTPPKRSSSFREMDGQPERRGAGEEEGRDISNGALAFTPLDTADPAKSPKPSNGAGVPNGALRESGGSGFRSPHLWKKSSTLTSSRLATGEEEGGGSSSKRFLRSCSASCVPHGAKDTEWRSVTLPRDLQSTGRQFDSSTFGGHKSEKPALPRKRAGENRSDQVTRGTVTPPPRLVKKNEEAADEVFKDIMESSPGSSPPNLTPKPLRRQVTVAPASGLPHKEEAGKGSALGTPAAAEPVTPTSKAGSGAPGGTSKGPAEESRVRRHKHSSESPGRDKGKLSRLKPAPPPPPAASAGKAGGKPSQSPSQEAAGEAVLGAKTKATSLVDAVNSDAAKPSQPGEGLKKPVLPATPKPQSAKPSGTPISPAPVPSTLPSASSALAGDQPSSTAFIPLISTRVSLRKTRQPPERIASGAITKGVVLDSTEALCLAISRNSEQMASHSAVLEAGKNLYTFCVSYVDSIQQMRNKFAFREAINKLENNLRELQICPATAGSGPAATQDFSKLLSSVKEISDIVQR
Structure (SMILES),target,observed,technique,concentration,reference,remaining binding [%]
CC(C)=CC1OC(C)(C)C2C=C3C(=O)C(Cl)=CC(O)C3C3C(O)C4OC4C(=O)C132 (centres unmarked),"Tyrosine-protein kinase ABL1, non-phosphorylated (ABL1, Homo sapiens, UniProt P00519, F317L)",cell-free assay,competition with immobilised ligand,10 µM,,94
C=CC(=O)N1CCCC(n2c(=O)c3ncccc3n(Cc3ccc(Oc4ccccc4)cc3)c2=O)C1 (centres unmarked),ABL1 F317I non-phosphorylated,cell-free assay,competition with immobilised ligand,1 µM,,95
Cc1ccc(-c2c(/C=C(\C#N)C(=O)NC(C)C)n(CCCO)c3ncnc(N)c23)cc1,"Tyrosine-protein kinase ABL1, phosphorylated (ABL1, Homo sapiens, UniProt P00519, M351T)",cell-free assay,competition with immobilised ligand,1 µM,,100
COc1cc(Nc2nccc(-c3cnn4nc(OC)ccc34)n2)cc(C(F)(F)F)c1,ABL1 F317I non-phosphorylated,binding,,1 µM,,100
C=CC(=O)N1CCc2ccc(-n3c(=O)ccc4cnc5ccc(-c6cnn(C)c6)cc5c43)cc21,"Tyrosine-protein kinase ABL1, non-phosphorylated (ABL1, Homo sapiens, UniProt P00519)",,KINOMEscan,1 µM,DMSO control,45
Cc1cnc2nc1Nc1cccc(c1)COC/C=C/COCc1cc(ccc1OCCN1CCOCC1)N2,"Tyrosine-protein kinase ABL1, phosphorylated (ABL1, Homo sapiens, UniProt P00519)",binding,,0.1 µM,,60
CNC(=O)C1CCN(c2cc(C)c(F)cc2NC(=O)c2ccc(-c3cc(O)ccc3C)c(C)c2)CC1,"Tyrosine-protein kinase ABL1, phosphorylated (ABL1, Homo sapiens, UniProt P00519, F317L)",binding,competition with immobilised ligand,1 µM,,20
CNC1C[S+]2CC[S+]3CC[S+](C1)[Ru-4]321([N]=C=S)[n]2c3ccc(OC)cc3c3c4c(c5cc(F)c[n+]1c5c32)C(=O)NC4=O (centres unmarked),ABL1 F317I non-phosphorylated,,KinomeScan,0.1 µM,untreated,92
